Literature values that unrelated publications cite.
Protocols differ between the studies behind these lines.

Structure (SMILES) | system | setting | half-life
CCc1nc(-c2ccc(-c3ccc(CCC(N)(CO)COP(=O)(O)O)cc3)cc2)co1 (stereo not shown) |  |  | ~11 h
O=C([O-])CN1CCOCCN(CC(=O)[O-])Cc2cccc(n2)C1.[Mn+2] |  | pH 6.0, 310 K, added: 25 mM Zn2+ | 11.1 h
Cc1ccccc1-c1cc(N2CCNCC2)ncc1N(C)C(=O)C(C)(C)c1cc(C(F)(F)F)cc(C(F)(F)F)c1 | healthy volunteers, plasma | oral, 450 mg, single dose, netupitant alone | 69.6 h
CC(C)(C)C1=CC(=NNC(=O)c2ccncc2)C=C(C(C)(C)C)C1=O | human liver microsomes |  | 0.15 h
O=C([O-])CN(CC(=O)[O-])c1ccccc1N(CC(=O)[O-])CC(=O)[O-].[Mn+2] | aqueous solution | pH 7.4, 25 °C, added: Cu(II) | 19.1 h
CC[C@H](C)[C@H](NC(=O)[C@H](Cc1ccc(O)cc1)NC(=O)[C@@H](NC(=O)[C@H](CCCNC(=N)N)NC(=O)[C@@H](N)CC(=O)O)C(C)C)C(=O)N[C@@H](Cc1c[nH]cn1)C(=O)N1CCC[C@H]1C(=O)O | circulation | ACE blockade | increased
O=C1CCC(N2Cc3ccccc3C2=O)C(=O)N1 (stereo not shown) | human plasma |  | 1.98 h
CC[C@H](C)[C@H](NC(=O)CNC(=O)CNC(=O)c1ccc2c(c1)C(=O)OC21c2ccc(O)cc2Oc2cc(O)ccc21)C(=O)N[C@@H](Cc1ccc(O)cc1)C(=O)N[C@@H](C)C(=O)N[C@@H](C)C(=O)N1CCC[C@H]1C(=O)N(C)[C@@H](Cc1ccccc1)C(=O)N[C@@H](CCCCN)C(=O)N[C@@H](CCCCN)C(=O)N[C@@H](CCCCN)C(=O)N[C@@H](C)C(N)=O | cytosolic lysate | 3 mg/mL total protein | 0.323 h
COc1cc2c(NC3CCN(C)CC3)nc(N3CCCN(C)CC3)nc2cc1OCc1ccccc1 | rat plasma | plasma stability | > 4 h
Cc1ccccc1-c1cc(N2CC[N+](C)([O-])CC2)ncc1N(C)C(=O)C(C)(C)c1cc(C(F)(F)F)cc(C(F)(F)F)c1 | healthy volunteers, plasma | oral, dose not given, netupitant-palonosetron, fed | 43 h
Cc1cn(C2C=CC(COP(=O)(O)OP(=O)(O)O)O2)c(=O)[nH]c1=O (stereo not shown) | CEM/0 cell extract |  | 59 h
CN1CCN(c2cc(-c3ccccc3CO)c(N(C)C(=O)C(C)(C)c3cc(C(F)(F)F)cc(C(F)(F)F)c3)cn2)CC1 | healthy volunteers, plasma | oral, 450 mg, single dose, netupitant alone | 67.9 h
C[C@@H](O)[C@H](NC(=O)OP(=O)(O)OC[C@H]1O[C@@H](n2cnc3c(N)ncnc32)[C@H](O)[C@@H]1O)C(=O)O |  | free compound, no metal ion | 0.267 h

Some of these lines once more:
Structure (SMILES) | system | setting | half-life
COc1cc2c(NC3CCN(C)CC3)nc(N3CCCN(C)CC3)nc2cc1OCc1ccccc1 | rat plasma | plasma stability | > 4 h
